Experimental data from different studies.
Values joined by “and” are separate records of one study, mostly repeats; a detail may differ. Numbers after ± are the reported error.

COC1OC(C)C(O)C(OC2OC(C)C(O)C(OC3OC(C)C(O)C(OC4OC(C)C(O)C(OC5OC(C)C(O)C(OC6OC(C)C(O)C(OS(=O)(=O)O)C6OS(=O)(=O)O)C5OS(=O)(=O)O)C4OS(=O)(=O)O)C3OS(=O)(=O)O)C2OS(=O)(=O)O)C1OS(=O)(=O)O (stereo not shown)
APTT prolongation (human plasma; 128 µg/mL; baseline: control): 1.2 fold

O=Cc1cc(OCc2ccccc2)ccc1B(O)O
pseudo-first-order rate constant (HPLC-MS; pH 10.2, added: 50 mM N-α-acetyl-lysine): 0.1 h⁻¹

CCCCCCCCCCCCCCCC(=O)OCC(CSC[C@H](N)C(=O)N[C@@H](CO)C(=O)N[C@@H](CCCCN)C(=O)N[C@@H](CCCCN)C(=O)N[C@@H](CCCCN)C(=O)N[C@@H](CCCCN)C(=O)NCCCCCC(=O)N[C@@H](CCCCN)C(=O)N[C@@H](CC(C)C)C(=O)N[C@H](C(=O)N[C@@H](Cc1ccccc1)C(=O)N[C@@H](Cc1ccccc1)C(=O)N[C@@H](Cc1ccc2ccccc2c1)C(=O)O)C(C)C)OC(=O)CCCCCCCCCCCCCCC (stereo partly shown)
GFAP level (APP/PS1 mouse, cortex; local injection, dose not given, unit not given; baseline: injected over adjacent side): 0.894 and 1.77 and 0.634 and 0.893 and 0.862 and 1.36 and 1.23

CN1CCC(N[C@@H]2CCc3[nH]c4c(C(N)=O)ccc(-c5ccccc5Cl)c4c3C2)CC1
IC50 (organoid viability, CellTiter-Glo 3D; sample D colorectal cancer organoid, human; 6 days): 8.46 nM

Cc1c(Cc2ccccc2)c(NCCN(C)C)n2c(nc3ccccc32)c1C#N
translation activity (Trypanosoma cruzi; reporter mRNA translation, inhibitor, measured: Renilla luciferase mRNA; cell-free extract; concentration not given, test 1; baseline: positive over negative control): 112% and 106%

CN1CCCNC(=O)c2cccc(c2)C(=O)NCCCN(C)CCCNc2cccc3c2C(=O)c2cccc(c2C3=O)NCCC1
log2 fold change (SAS; RNA-Seq, measured: ATP6V1E2 mRNA; 1 µM, 6 h; baseline: untreated cells): 1.31

CCCCCc1ccc(S(=O)(=O)N2CC2C(=O)OC)cc1 (stereo not shown)
tumour volume (mouse, Lewis lung carcinoma; intraperitoneal, 15 mg/kg, 16 doses, day 13): 400 mm3

COC1OC(C)C(OC2OC(C)C(OS(=O)(=O)O)C(OC3OC(C)C(OC4OC(C)C(OS(=O)(=O)O)C(OC5OC(C)C(OC6OC(C)C(OS(=O)(=O)O)C(OC7OC(C)C(OC8OC(C)C(OS(=O)(=O)O)C(OC9OC(C)C(OC%10OC(C)C(OS(=O)(=O)O)C(OC%11OC(C)C(OS(=O)(=O)O)C(OS(=O)(=O)O)C%11O)C%10O)C(OS(=O)(=O)O)C9O)C8O)C(OS(=O)(=O)O)C7O)C6O)C(OS(=O)(=O)O)C5O)C4O)C(OS(=O)(=O)O)C3O)C2O)C(OS(=O)(=O)O)C1O (stereo not shown)
APTT prolongation (human plasma; 128 µg/mL; baseline: control): 1.4 fold

Oc1cc2c(cc1O)C(c1ccccc1)NCC2 (stereo not shown)
Fe2+ chelation (ferrozine; cell-free; 100 µM, DMSO solvent): 91.24 ± 0.81%

CNS(=O)(=O)Nc1nccc(Cc2c(C)c3ccc(Oc4ncccc4F)cc3oc2=O)c1F
IC50 (Aska-SS; cell viability, CellTiter-Glo; 7 days): > 1000 nM

CCCC[C@@H](CSS(=O)(=O)O)NC(C)C
spleen weight (Swiss Webster mice, Schistosoma mansoni-infected; 100 mg/kg, perfusion day 57 post-infection): 0.6 g

COC1CN([C@H]2CC[C@H]([C@@]3(C)Oc4c(Cl)cc(C(=O)NCc5c(SC)cc(C)[nH]c5=O)c(C)c4O3)CC2)C1
log2 fold change (RNA-seq, measured: XKR6; human, whole blood; dose not given, 24 h; baseline: pretreatment baseline): 1.99

COc1cc(N2CCN(C(=O)C3CCCN3)CC2)ccc1Nc1ncc(Cl)c(Nc2ccccc2P(C)(C)=O)n1 (stereo not shown)
tumour volume (nude mice, NCI-H3122 xenograft; oral, 25 mg/kg every two days, day 9): 88.4 mm3 and 220 mm3 and 185 mm3 and 25.4 mm3 and 96.5 mm3

CC(CCC(=O)NCc1ccc(C(=O)NO)cc1)C1CCC2C3C(O)CC4CC(O)CCC4(C)C3CCC12C (stereo not shown)
relative abundance (measured: GCA; PCK rat (Pkhd1 mutant), peripheral blood; oral gavage, dose not given, 5 months; baseline: total bile acids): 11.3%

COC1OC(C)C(O)C(OC2OC(C)C(O)C(OC3OC(C)C(O)C(OC4OC(C)C(O)C(OC5OC(C)C(O)C(OC6OC(C)C(O)C(OC7OC(C)C(O)C(OC8OC(C)C(O)C(OC9OC(C)C(O)C(OC%10OC(C)C(O)C(OC%11OC(C)C(O)C(OC%12OC(C)C(O)C(OS(=O)(=O)O)C%12OS(=O)(=O)O)C%11OS(=O)(=O)O)C%10OS(=O)(=O)O)C9OS(=O)(=O)O)C8OS(=O)(=O)O)C7OS(=O)(=O)O)C6OS(=O)(=O)O)C5OS(=O)(=O)O)C4OS(=O)(=O)O)C3OS(=O)(=O)O)C2OS(=O)(=O)O)C1OS(=O)(=O)O (stereo not shown)
APTT prolongation (human plasma; 128 µg/mL; baseline: control): 1.4 fold

CN(C)CCCN(C(=O)c1nc2ccccc2s1)c1nc2ccc(F)cc2s1
translation activity (Trypanosoma cruzi; reporter mRNA translation, inhibitor, measured: Renilla luciferase mRNA; cell-free extract; concentration not given, test 3; baseline: positive over negative control): 102%

COc1ccc(S(=O)(=O)N2CCc3ccccc3C2)cc1N1CCN(C(=O)c2ccc(F)cc2C(F)(F)F)CC1
TH-immunoreactive cell ratio (CNN cell counting, measured: tyrosine hydroxylase; rat, 6-OHDA lesion model, substantia nigra pars compacta; 0.3 µg/24 h; baseline: lesioned over intact side): 16.5 ± 3.8%

O=C(N[C@@H](Cc1ccc(OCCCCC2CCNCC2)cc1)C(=O)O)c1nc2ccccc2o1.O=C(O)C(F)(F)F
clot retraction velocity (human, platelet-rich plasma; 15 µM, added: thrombin): 0.00564 min⁻¹ and 0.0101 min⁻¹ and 0.00522 min⁻¹

COC1OC(C)C(OC2OC(C)C(OS(=O)(=O)O)C(OC3OC(C)C(OS(=O)(=O)O)C(OS(=O)(=O)O)C3O)C2O)C(OS(=O)(=O)O)C1O (stereo not shown)
APTT prolongation (human plasma; 128 µg/mL; baseline: control): 1.1 fold

CN1CCC[C@]1(C)/C=C/S(=O)(=O)NC(=O)Nc1c2c(cc3c1CCC3)CCC2
IL-18 inhibition (human, whole blood ex vivo; 400 mg single dose, 12 h, single ascending dose, added: LPS and ATP): 79.7%

COc1ccc(C([O-])=CC(=O)c2ccc(C(C)(C)C)cc2)cc1.[Ru+2].c1ccc(-c2ccnc3c2ccc2c(-c4ccccc4)ccnc23)cc1.c1ccc(-c2ccnc3c2ccc2c(-c4ccccc4)ccnc23)cc1
relaxed circular DNA increase (gel electrophoresis; pUC19 plasmid DNA; no light; baseline: no compound): 67%

COC1OC(C)C(OC2OC(C)C(OS(=O)(=O)O)C(OS(=O)(=O)O)C2O)C(OS(=O)(=O)O)C1O (stereo not shown)
APTT prolongation (human plasma; 128 µg/mL; baseline: control): 1 fold

COCCOCCOCCNC(=O)Cc1cc(CC(=O)N[C@H]2C[C@H]3C(=O)Nc4cc(OCCOCCOCCOC)cc(n4)C(=O)N4CCC[C@H]4C(=O)Nc4cc(OCCOCCOCCOC)cc(n4)C(=O)N4CCC[C@H]4C(=O)Nc4cc(OCCOCCOCCOC)cc(n4)C(=O)N3C2)cc(CC(=O)N[C@H]2C[C@H]3C(=O)Nc4cc(OCCOCCOCCOC)cc(n4)C(=O)N4CCC[C@H]4C(=O)Nc4cc(OCCOCCOCCOC)cc(n4)C(=O)N4CCC[C@H]4C(=O)Nc4cc(OCCOCCOCCOC)cc(n4)C(=O)N3C2)c1
ΔG (anion binding, ITC; water/acetonitrile 95 vol% (98.2 mol%); 298 K, added: sodium iodide): -5.14 ± 0.0717 kcal/mol

O=Cc1c(O)c(C=O)c(O)c(C=O)c1O
pseudo-first-order rate constant (HPLC-MS; pH 10.2, added: 50 mM N-α-acetyl-lysine): 15.8 h⁻¹

CC(=O)[O-].O.O.O.O.[Mn+2].[O-]c1ccc(Br)cc1C=NCCN1CCOCC1
inhibition (DPPH radical scavenging; 80 µM): 20.9%

Cc1ccc([N+](=O)[O-])cc1S(=O)(=O)N(C)/N=C/c1cnc2ccc(Br)cn12
PI-stained cells (peripheral blood mononuclear cells, Sézary syndrome patients; 200 nM): 35.2%

Cc1[nH]nc2c1N=C(c1ccccc1Cl)c1cnc(N3CCOCC3)cc1N2
tumour growth inhibition (mouse sample F TNBC PDX; oral, 15 mg/kg, 120 h, 5 days per week): 85%

Nc1nc2cnc(C(=O)N3CCOC[C@@H]3c3ccc(C(F)(F)F)cc3)cc2c2c1COC2
inhibition (ELISA, measured: SDMA; mouse, HCT-116 MTAP wild type xenograft, tumour; oral, 3 mg/kg once daily; baseline: vehicle): 26%

COc1cc(O)ccc1CCC(c1ccc(O)cc1)c1cc2c(c(C)c1O)OC(c1ccc(O)cc1)CC2 (mixture of isomers)
amount (measured: 7-HDHA; human whole blood; 0.3 µM, added: Escherichia coli): 41 ± 14 pg/mL blood

S=C(S)OC1CC2CC1C1CCCC21 (stereo not shown)
Leu-enkephalin concentration (LC-MS/MS, measured: extracellular Leu-enkephalin; mouse striatal brain slices; 500 µM, 20 min, added: 50 mM KCl): 83.6 pM and 2300 pM and 1280 pM and 585 pM and 1360 pM and 1150 pM and 2260 pM and 286 pM

COC1OC(C)C(OC2OC(C)C(OS(=O)(=O)O)C(OC3OC(C)C(OC4OC(C)C(OS(=O)(=O)O)C(OC5OC(C)C(OC6OC(C)C(OS(=O)(=O)O)C(OC7OC(C)C(OS(=O)(=O)O)C(OS(=O)(=O)O)C7O)C6O)C(OS(=O)(=O)O)C5O)C4O)C(OS(=O)(=O)O)C3O)C2O)C(OS(=O)(=O)O)C1O (stereo not shown)
APTT prolongation (human plasma; 128 µg/mL; baseline: control): 1.2 fold

O=[N+]([O-])c1cc(Br)cc([N+](=O)[O-])c1NS(=O)(=O)c1ccc(Br)cc1
log2 fold change (RNA-seq, measured: AT1G02520; Arabidopsis thaliana Col seedlings; dose not given; baseline: DMSO): 3.88

COc1cc2c(NC3CCN(C(C)C)CC3)cc(N3CCOCC3)nc2cc1OCCCN1CCCC1
log2 fold change (TMT proteomics, measured: SCG2; 5xFAD mouse, hippocampus; dose not given; baseline: wild type): 0.0784

CCOC(=O)CCCCC1NCCc2cc(O)c(O)cc21 (stereo not shown)
Fe2+ chelation (ferrozine; cell-free; 100 µM, DMSO solvent): 91.74 ± 0.55%

Some of these lines once more:
COCCOCCOCCNC(=O)Cc1cc(CC(=O)N[C@H]2C[C@H]3C(=O)Nc4cc(OCCOCCOCCOC)cc(n4)C(=O)N4CCC[C@H]4C(=O)Nc4cc(OCCOCCOCCOC)cc(n4)C(=O)N4CCC[C@H]4C(=O)Nc4cc(OCCOCCOCCOC)cc(n4)C(=O)N3C2)cc(CC(=O)N[C@H]2C[C@H]3C(=O)Nc4cc(OCCOCCOCCOC)cc(n4)C(=O)N4CCC[C@H]4C(=O)Nc4cc(OCCOCCOCCOC)cc(n4)C(=O)N4CCC[C@H]4C(=O)Nc4cc(OCCOCCOCCOC)cc(n4)C(=O)N3C2)c1
ΔG (anion binding, ITC; water/acetonitrile 95 vol% (98.2 mol%); 298 K, added: sodium iodide): -5.14 ± 0.0717 kcal/mol

O=Cc1c(O)c(C=O)c(O)c(C=O)c1O
pseudo-first-order rate constant (HPLC-MS; pH 10.2, added: 50 mM N-α-acetyl-lysine): 15.8 h⁻¹

CC(=O)[O-].O.O.O.O.[Mn+2].[O-]c1ccc(Br)cc1C=NCCN1CCOCC1
inhibition (DPPH radical scavenging; 80 µM): 20.9%
